Experimental data of several laboratories.
Protocols differ between the studies behind these lines.

O=C(NC1CCNCC1)c1[nH]ncc1NC(=O)c1c(Cl)cccc1Cl
beat amplitude (iCell Cardiomyocytes (hiPSC-derived); xCELLigence Cardio impedance; concentration not given, 2 h; relative to: control): 103%

Cn1cc(-c2ccc(-c3cncc(Cl)c3N3CCC4(CCNC4=O)CC3)cc2)cn1
log2 fold change (COLO 205; gene expression, microarray, measured: SDC4 mRNA; concentration not given, 6 h; relative to: untreated cells): 2.9

O=C(/C=C/C=C/C=C/C1CCCCC1)NC1=C[C@@](O)(/C=C/C=C/C=C/C(=O)NC2=C(O)CCC2=O)[C@@H]2O[C@@H]2C1=O
GI50 (NCI-N87; cell growth, CellTiter-Glo; 78 h): 12.7 µM

C[C@@H](Oc1cc(-n2cnc3ccc(CN4CCN(C)CC4)cc32)sc1C(N)=O)c1ccccc1C(F)(F)F
beat amplitude (iCell Cardiomyocytes (hiPSC-derived); xCELLigence Cardio impedance; concentration not given, 2 h; relative to: control): 104%

O=C(O)Cc1c[nH]c2ccccc12
z-scored log2 fold change (binding, equilibrium dialysis LC-MS; 5 µM, thermostabilized A2AR-BRIL construct; relative to: no-protein control, direction not given): -0.0498

CCC(=O)N1CCC(COCC(=O)N2CCN(c3nc(-c4cnc(N)nc4C(F)F)nc(N4CCOC[C@@H]4C)n3)CC2)CC1
IC50 (T47D; Akt phosphorylation, inhibitor, in-cell western, measured: Akt pSer473; 2 h): 0.0434 µM

CCn1cc(-c2cc(Cn3ccnc3)cc3c2CCN([C@H](c2cc(OC)ccn2)C2CC2)C3=O)c(C(F)(F)F)n1
EC50 (AN3-CA; cell growth, inhibitor; 120 h): 29.5 µM

CNC(=O)c1cc(Oc2ccc(NC(=O)Nc3ccc(Cl)c(C(F)(F)F)c3)cc2)ccn1
ATP level (iCell Cardiomyocytes (hiPSC-derived); CellTiter-Glo; concentration not given, 24 h; relative to: control): 92.5%

Cc1cc(Nc2ncc(Cl)c(Nc3ccccc3S(=O)(=O)C(C)C)n2)c(OC(C)C)cc1C1CCNCC1
log2 fold change (CLB-BAR; phosphoproteomics LC-MS/MS, measured: SLC35E1 phosphorylation; 200 nM, 60 min; relative to: untreated): -3.41

Cn1cc(Nc2nccc(-c3ccc4c(c3)CN(C3COC3)CC[C@H]4NC(=O)c3cn(C(C)(C)C)nn3)n2)cn1
number of upregulated genes (human B cells; 100 nM, 64 h, stimulation-upregulated genes, with: anti-IgM): 0

Oc1cccc(-c2nc(N3CCOCC3)c3oc4ncccc4c3n2)c1
cell index (iCell Cardiomyocytes (hiPSC-derived); cellular impedance; concentration not given, 24 h; relative to: control): 82.5%

CCc1cnc(N2CCC(c3nc(COc4ccc(-n5cnnn5)cc4)cs3)CC2)nc1
log2 fold change (HEK293T; RNA-seq, measured: ASNS mRNA; 10 µM, 6 h; relative to: vehicle): 1.11

CC1(C)CCC(CN2CCN(c3ccc(C(=O)NS(=O)(=O)c4ccc(NCC5CCOCC5)c([N+](=O)[O-])c4)c(Oc4cnc5[nH]ccc5c4)c3)CC2)=C(c2ccc(Cl)cc2)C1
late apoptotic cells (THP-1; annexin V/PI flow cytometry, measured: annexin V+/PI+; 3.2 µM, 24 h): 4.3%

COc1cnc2cccc(N3CCc4c(cc(Cn5ccnc5C)cc4-c4cn(C)nc4C(F)(F)F)C3=O)c2c1
EC50 (Ramos; cell growth, inhibitor; 120 h): 4.53 µM

CN1CC[C@H](c2c(O)cc(O)c3c(=O)cc(-c4ccccc4Cl)oc23)[C@H](O)C1
ATP level (iCell Cardiomyocytes (hiPSC-derived); CellTiter-Glo; concentration not given, 24 h; relative to: control): 88.6%

CC(C)(CO[P@@](=O)(O)O[P@@](=O)(O)OC[C@H]1O[C@@H](n2cnc3c(N)ncnc32)[C@H](O)[C@@H]1OP(=O)(O)O)[C@@H](O)C(=O)NCCC(=O)NCCSC(=O)CC(=O)O
z-scored log2 fold change (binding, equilibrium dialysis LC-MS; 5 µM, thermostabilized A2AR-BRIL construct; relative to: no-protein control, direction not given): 0.0788

CCn1cc(-c2cc(Cn3ccoc3=N)cc3c2CCN([C@@H](C)c2cc(OC)ccn2)C3=O)c(C(F)(F)F)n1
EC50 (CAKI-2; cell growth, inhibitor; 120 h): > 30 µM

CN1CCN(c2ccc3[nH]c(-c4ccc5[nH]c(-c6ccc(C(F)(F)F)cc6)nc5c4)nc3c2)CC1
growth percent (KM12; SRB; 10 µM, 48 h): 49.7%
